# Measurements from different studies.
# Several values in a cell are separate wells, animals, samples, runs or records. Numbers after ± are the reported error.
# Sequence of UniProt Q96RR4 (whole entry, looked up): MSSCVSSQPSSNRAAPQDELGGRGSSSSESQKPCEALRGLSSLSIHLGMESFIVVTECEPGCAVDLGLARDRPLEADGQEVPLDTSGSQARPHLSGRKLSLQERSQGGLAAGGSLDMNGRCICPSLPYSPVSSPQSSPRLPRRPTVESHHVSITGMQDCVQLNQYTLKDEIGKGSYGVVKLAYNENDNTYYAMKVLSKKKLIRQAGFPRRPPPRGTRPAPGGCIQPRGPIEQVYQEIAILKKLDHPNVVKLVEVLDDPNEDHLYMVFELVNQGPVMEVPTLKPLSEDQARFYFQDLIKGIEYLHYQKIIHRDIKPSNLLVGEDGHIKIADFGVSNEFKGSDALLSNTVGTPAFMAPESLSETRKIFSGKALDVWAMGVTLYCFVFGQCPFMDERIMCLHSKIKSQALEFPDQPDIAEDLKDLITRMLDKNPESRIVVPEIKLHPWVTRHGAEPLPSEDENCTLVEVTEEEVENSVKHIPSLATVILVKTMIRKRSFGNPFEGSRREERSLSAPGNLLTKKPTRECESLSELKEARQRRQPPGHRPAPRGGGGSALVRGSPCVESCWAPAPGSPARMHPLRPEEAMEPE
Compound,target or system,test,system,conditions,scale,endpoint,value
Cc1cc(Nc2ccc(S(F)(F)(F)(F)F)cc2)n2nc(C(C)(F)F)nc2n1,Plasmodium vivax,,human Plasmodium vivax malaria patients,"oral, 400 mg",,patients with any adverse event,80%
CC(C)C[C@H](NC(=O)C[C@H](O)[C@H](CC(C)C)NC(=O)[C@H](Cc1c[nH]cn1)NC(=O)CNC(=O)[C@@H](NC(=O)[C@H](C)NC(=O)[C@H](Cc1c[nH]c2ccccc12)NC(=O)[C@H](CCC(N)=O)NC(=O)[C@@H](Cc1ccccc1)NC(=O)COCCOCCNC(=O)CCC(C(=O)O)N1CCN(CC(=O)O)CCN(CC(=O)O)CCN(CC(=O)O)CC1)C(C)C)C(N)=O (stereo partly shown) [lutetium-177 labelled],,,"BALB/c nu/nu mice, female, stomach","100 pmol, 30 min, time course 0.5 h, added: PA 300 µg",,tissue uptake,4 ± 1 %ID/g
COc1cccc(-c2n[nH]c(SCc3ccccn3)n2)c1OC,CHO-WBL,,,"16 µg/mL, 19 h, without S9",,binucleated cells with micronuclei,1.4%
CC(C)[C@H](NC(=O)[C@H](Cc1ccc(O)cc1)NC(=O)[C@H](Cc1ccc(O)cc1)NC(=O)[C@@H]1CCCN1C(=O)[C@H](CCC(=O)O)NC(=O)[C@H](CCC(=O)O)NC(=O)[C@H](Cc1c[nH]c2ccccc12)NC(=O)[C@@H]1CCCN1C(=O)[C@@H](NC(=O)[C@H](CCC(N)=O)NC(=O)c1ccc2c(c1)C(=O)OC21c2ccc(O)cc2Oc2cc(O)ccc21)C(C)C)C(=O)N[C@H](C(=O)N[C@@H](CCCCN)C(=O)N[C@@H](CCCCN)C(=O)N[C@@H](CO)C(=O)N[C@@H](CO)C(=O)NCC(=O)NCC(N)=O)C(C)C,,,"human, plasma","intravenous infusion, 400 mg, 0.25 h",,plasma concentration,24500 ng/mL
O=P1(C2CCCCC2)CCCCC1,SW-620,trypan blue,,"IC50, 72 h",,viability,97%
CC(C)C[C@H](NC(=O)C[C@H](O)[C@H](CC(C)C)NC(=O)[C@H](Cc1c[nH]cn1)NC(=O)CNC(=O)[C@@H](NC(=O)[C@H](C)NC(=O)[C@H](Cc1c[nH]c2ccccc12)NC(=O)[C@H](CCC(N)=O)NC(=O)[C@@H](Cc1ccccc1)NC(=O)COCCOCCNC(=O)CN1CCN(CC(=O)O)CCN(CC(=O)O)CCN(CC(=O)O)CC1)C(C)C)C(N)=O [lutetium-177 labelled],,,"female BALB/c nu/nu mice, tumor","intravenous, 50 pmol, 24 h",,tissue uptake,5 ± 1 %ID/g
Cc1cc(C(=O)NC(C)(C)COc2cccc3c2C(N)=NS(=O)(=O)N3)cc(C)n1,human peripheral blood lymphocytes,in vitro micronucleus test,0.2% DMSO,"250 µg/mL, 24 h",,micronucleated binucleated cells,0.3%
CC(C)CNC(=O)[C@H](C)NC(=O)[C@]1(Cc2ccccc2)CCN1C(=O)OCc1ccccc1,HEL,cell morphology,,,,minimum cytotoxic concentration,> 100 µM
N#Cc1ccc2c(c1)[C@H]1CCCN(C(=O)c3ccc4[nH]cnc4c3)[C@H]1C2,,,human,"10 mg, end of trial",,median ACTH level,4.2 pmol/L
Nc1ncnc2c1ncn2C1CCCC1,HCT-116,CellTiter-Glo,,"up to 100 µM, 8 days",relative to: vehicle,viability,> 80%
O=C(Nc1ccc(Cl)c(Br)c1)c1ccc2c(c1)C(=O)NC2=O,BV-2,MTT,,"1 to 20 µM, 24 h",,viability,not toxic
OC(CCN1CCCCC1)(c1ccccc1)C1CC2C=CC1C2 (stereo not shown),,resting-state EEG,healthy elderly humans,"oral, 4 mg, eyes closed, LS mean",relative to: baseline,change in EEG Beta3-power Pz-O1,6.3%
O=C(O)CNC(=O)c1ncc(-c2cccc(Cl)c2)cc1O,MDCK low-efflux cells,passive permeability,,apical to basolateral,,Papp,16 ×10⁻⁶ cm/s
CC(=O)[C@]1(O)Cc2c(O)c3c(c(O)c2[C@@H](O[C@H]2C[C@H](N)[C@H](O)[C@H](C)O2)C1)C(=O)c1ccccc1C3=O,THP-1 PMA-differentiated macrophages,CellTiter-Glo,,"72 h, host cell cytotoxicity",,CC50,0.59 µM
CCOC(=O)c1c(C)nc(NCCCCNc2ccnc3cc(Cl)ccc23)nc1-c1ccccc1,HEL,cell morphology,,,,minimum cytotoxic concentration,20 µM
C/C(O)=C(\C#N)C(=O)Nc1ccc(C(F)(F)F)cc1,EL4,,culture medium,"4 µM, 48 h",,free drug concentration,1040 nM
Cn1cc(-c2ccc(-c3cncc(Cl)c3N3CCC4(CCNC4=O)CC3)cc2)cn1,COLO 205,"gene expression, microarray, refers to: EPAS1 mRNA",,"concentration not given, 6 h",relative to: untreated cells,log2 fold change,6.58
CN1C(C(=O)Nc2ccccn2)=C(O)c2ccccc2S1(=O)=O,MDCK low-efflux cells,passive permeability,,apical to basolateral,,Papp,25 ×10⁻⁶ cm/s
COc1cc2ncnc(Nc3ccc(Oc4ccccc4)cc3C)c2cc1OC.O=C(O)C(F)(F)F,HepG2 (NRAS Q61L),resazurin,,"concentration not given, 72 h, added: trametinib 0 nM",,viability,1 fraction of control and 0.999 fraction of control and 0.996 fraction of control and 0.992 fraction of control
CCCCCCCC[N+](CCCCCCCC)(CCCCCCCC)CCCCCCCC.[Br-],hTERT-RPTEC-OAT1,LDH release,culture medium,"concentration not given, 24 h, 96-well plate",,LDH activity in medium,31.2 mU/mL
CC1(C)CCC(c2ccc(Cl)cc2)=C(CN2CCN(c3ccc(C(=O)NS(=O)(=O)c4ccc(N[C@H](CCN5CCOCC5)CSc5ccccc5)c(S(=O)(=O)C(F)(F)F)c4)cc3)CC2)C1,mouse ileal enteroid monolayers,,,"50 % saturated solubility, 2 h, basolateral fractions 1-10, added: taurocholate/phosphatidylcholine micelles",,drug secreted with TRL,10.7 ± 8.8%
O=C(O)CNC(=O)c1ncccc1O,MDCK low-efflux cells,passive permeability,,apical to basolateral,,Papp,4.3 ×10⁻⁶ cm/s
O=c1[nH]c(=O)n([C@H]2C[C@H](O)[C@@H](CO)O2)cc1/C=C/Br,HEL,cell morphology,,,,minimum cytotoxic concentration,> 300 µM
Cc1nc(N(C)C(=O)Cc2ccc(-c3ccccn3)cc2)sc1S(N)(=O)=O,primary human keratinocytes,,,20 h,,CC50,> 10 µM
Nc1ccn(C[C@@H](CO)OCP(=O)(O)O)c(=O)n1.O.O,HEL,,,,,minimum cytotoxic concentration,> 250 µM
CC[C@@H]1[C@H](F)C(=O)N[C@@H]1COc1nccc2cc(C(N)=O)c(OC)cc12,"Calcium/calmodulin-dependent protein kinase kinase 2 (CAMKK2, Homo sapiens, UniProt Q96RR4)","ATP-site probe binding, ActivX profiling",THP-1 cell lysate,"0.04 mM, Lys2 site",,inhibition,9.8%
CC(C)(C(=O)N1CCOc2c(C#N)cncc2C1)C(F)F,,refers to: renal and urinary disorders,human,"oral, 10 mg, CSF pharmacokinetic cohort",,subjects with adverse event,0%
COc1ccccc1OCC(O)CN1CCN(CC(=O)Nc2c(C)cccc2C)CC1 (stereo not shown),hiPSC-derived cardiomyocytes,,,"50 µM, coupled and decoupled",,spike amplitude,decreased
O=C(Nc1ccc([N+](=O)[O-])cc1Cl)c1cc(Cl)ccc1O,primary human keratinocytes,,,20 h,,CC50,> 10 µM
CNCc1ccc(-c2[nH]c3cc(F)cc4c3c2CCNC4=O)cc1,SW-620,[14C] uptake,,400 nM,,time to steady state,30 min
CC[C@H]1[C@@H](O)[C@@H]2[C@H](CC[C@]3(C)[C@@H]([C@H](C)CCNC(=O)NS(=O)(=O)c4ccc(C(C)(C)C)cc4)CC[C@@H]23)[C@@]2(C)CC[C@@H](O)C[C@@H]12,"ATP-dependent translocase ABCB1 (ABCB1, Homo sapiens, UniProt P08183)",,"human, plasma","dose not given, median, added: quinidine",,Tmax,4 h

# For quick reference, copied from above:
Compound,target or system,test,system,conditions,scale,endpoint,value
COc1cc2ncnc(Nc3ccc(Oc4ccccc4)cc3C)c2cc1OC.O=C(O)C(F)(F)F,HepG2 (NRAS Q61L),resazurin,,"concentration not given, 72 h, added: trametinib 0 nM",,viability,1 fraction of control and 0.999 fraction of control and 0.996 fraction of control and 0.992 fraction of control
COc1cccc(-c2n[nH]c(SCc3ccccn3)n2)c1OC,CHO-WBL,,,"16 µg/mL, 19 h, without S9",,binucleated cells with micronuclei,1.4%
O=P1(C2CCCCC2)CCCCC1,SW-620,trypan blue,,"IC50, 72 h",,viability,97%
CCOC(=O)c1c(C)nc(NCCCCNc2ccnc3cc(Cl)ccc23)nc1-c1ccccc1,HEL,cell morphology,,,,minimum cytotoxic concentration,20 µM
